Experimental data of several laboratories.
HDAC8: Histone deacetylase 8 (HDAC8, Homo sapiens, UniProt Q9BY41)
UniProt Q9BY41, sequence (whole entry, looked up): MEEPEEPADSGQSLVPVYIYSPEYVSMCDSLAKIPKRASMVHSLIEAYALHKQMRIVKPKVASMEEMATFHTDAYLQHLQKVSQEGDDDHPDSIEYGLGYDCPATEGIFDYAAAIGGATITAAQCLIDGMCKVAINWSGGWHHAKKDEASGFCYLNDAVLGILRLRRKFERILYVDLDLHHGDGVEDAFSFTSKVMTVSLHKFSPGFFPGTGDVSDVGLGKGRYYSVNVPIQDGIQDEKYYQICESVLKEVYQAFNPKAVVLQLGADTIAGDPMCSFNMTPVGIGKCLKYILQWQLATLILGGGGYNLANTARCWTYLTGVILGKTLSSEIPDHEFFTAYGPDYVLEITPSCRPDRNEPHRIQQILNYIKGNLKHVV
ADRA2B: Alpha-2B adrenergic receptor (ADRA2B, Homo sapiens, UniProt P18089)
UniProt P18089, sequence (whole entry, looked up): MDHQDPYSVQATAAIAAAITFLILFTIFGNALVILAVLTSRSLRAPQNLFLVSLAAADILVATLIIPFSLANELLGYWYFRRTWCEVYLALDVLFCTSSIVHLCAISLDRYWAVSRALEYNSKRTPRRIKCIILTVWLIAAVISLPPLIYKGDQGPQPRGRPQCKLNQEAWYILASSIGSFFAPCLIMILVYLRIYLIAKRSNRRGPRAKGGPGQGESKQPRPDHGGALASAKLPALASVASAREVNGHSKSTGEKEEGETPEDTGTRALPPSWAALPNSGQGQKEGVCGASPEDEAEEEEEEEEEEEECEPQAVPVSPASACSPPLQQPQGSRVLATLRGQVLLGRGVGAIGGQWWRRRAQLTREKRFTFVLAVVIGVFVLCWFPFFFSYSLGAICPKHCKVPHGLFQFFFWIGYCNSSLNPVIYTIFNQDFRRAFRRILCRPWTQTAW
DRD3: D(3) dopamine receptor (DRD3, Homo sapiens, UniProt P35462)
UniProt P35462, sequence (whole entry, looked up): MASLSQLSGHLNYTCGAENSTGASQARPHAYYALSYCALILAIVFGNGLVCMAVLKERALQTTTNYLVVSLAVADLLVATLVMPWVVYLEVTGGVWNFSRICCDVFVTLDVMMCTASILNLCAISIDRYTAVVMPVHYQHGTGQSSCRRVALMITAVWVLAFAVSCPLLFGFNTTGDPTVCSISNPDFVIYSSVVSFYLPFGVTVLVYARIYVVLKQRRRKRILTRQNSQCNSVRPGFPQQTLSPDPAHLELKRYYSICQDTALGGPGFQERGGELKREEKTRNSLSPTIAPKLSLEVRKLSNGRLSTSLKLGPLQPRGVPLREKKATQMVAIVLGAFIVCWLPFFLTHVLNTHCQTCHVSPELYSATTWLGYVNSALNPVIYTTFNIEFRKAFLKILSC
HDAC6: Protein deacetylase HDAC6 (HDAC6, Homo sapiens, UniProt Q9UBN7)
UniProt Q9UBN7, sequence (whole entry, looked up): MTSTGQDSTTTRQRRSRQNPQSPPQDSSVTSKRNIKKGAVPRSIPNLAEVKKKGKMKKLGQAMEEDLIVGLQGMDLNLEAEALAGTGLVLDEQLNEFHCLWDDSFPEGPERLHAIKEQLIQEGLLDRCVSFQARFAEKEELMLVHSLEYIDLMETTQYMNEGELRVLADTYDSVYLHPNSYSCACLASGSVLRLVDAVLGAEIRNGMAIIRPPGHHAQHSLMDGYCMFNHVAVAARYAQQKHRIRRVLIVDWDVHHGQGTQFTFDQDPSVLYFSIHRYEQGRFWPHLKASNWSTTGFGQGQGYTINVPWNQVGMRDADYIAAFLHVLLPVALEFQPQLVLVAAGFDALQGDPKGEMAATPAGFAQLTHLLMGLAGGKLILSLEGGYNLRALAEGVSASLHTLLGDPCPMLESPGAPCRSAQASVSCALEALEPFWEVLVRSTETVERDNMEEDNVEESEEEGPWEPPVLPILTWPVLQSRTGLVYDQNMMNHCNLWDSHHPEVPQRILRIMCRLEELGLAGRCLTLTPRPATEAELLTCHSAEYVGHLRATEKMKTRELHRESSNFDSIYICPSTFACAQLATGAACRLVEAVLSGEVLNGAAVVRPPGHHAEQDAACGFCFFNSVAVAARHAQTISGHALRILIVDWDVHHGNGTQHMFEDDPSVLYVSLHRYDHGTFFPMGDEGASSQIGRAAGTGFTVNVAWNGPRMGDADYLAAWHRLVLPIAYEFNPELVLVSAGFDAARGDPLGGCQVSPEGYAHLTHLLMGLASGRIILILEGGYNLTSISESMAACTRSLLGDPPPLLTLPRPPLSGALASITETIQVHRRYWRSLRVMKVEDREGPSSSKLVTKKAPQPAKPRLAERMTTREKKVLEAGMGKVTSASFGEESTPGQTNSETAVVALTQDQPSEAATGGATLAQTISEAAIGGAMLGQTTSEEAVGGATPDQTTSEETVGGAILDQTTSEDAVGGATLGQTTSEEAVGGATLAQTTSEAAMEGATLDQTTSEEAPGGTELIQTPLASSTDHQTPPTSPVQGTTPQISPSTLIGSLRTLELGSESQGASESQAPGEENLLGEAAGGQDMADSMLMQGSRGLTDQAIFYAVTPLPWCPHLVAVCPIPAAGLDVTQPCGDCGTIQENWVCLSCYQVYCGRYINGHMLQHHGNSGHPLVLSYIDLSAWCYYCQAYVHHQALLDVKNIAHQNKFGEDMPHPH
ADRA2C: Alpha-2C adrenergic receptor (ADRA2C, Homo sapiens, UniProt P18825)
UniProt P18825, sequence (whole entry, looked up): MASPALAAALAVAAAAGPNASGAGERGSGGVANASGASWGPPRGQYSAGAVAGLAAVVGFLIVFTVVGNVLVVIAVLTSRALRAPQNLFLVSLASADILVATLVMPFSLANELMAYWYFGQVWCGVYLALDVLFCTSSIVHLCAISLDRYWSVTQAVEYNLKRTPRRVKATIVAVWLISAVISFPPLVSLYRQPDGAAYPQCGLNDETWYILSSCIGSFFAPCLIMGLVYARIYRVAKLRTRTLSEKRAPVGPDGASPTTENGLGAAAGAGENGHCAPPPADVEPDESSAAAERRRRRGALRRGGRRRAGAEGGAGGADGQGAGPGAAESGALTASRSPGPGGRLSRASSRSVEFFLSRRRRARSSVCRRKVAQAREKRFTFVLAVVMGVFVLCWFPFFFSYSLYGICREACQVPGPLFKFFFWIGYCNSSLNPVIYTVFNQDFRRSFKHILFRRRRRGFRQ
UniProt P36896, sequence (whole entry, looked up): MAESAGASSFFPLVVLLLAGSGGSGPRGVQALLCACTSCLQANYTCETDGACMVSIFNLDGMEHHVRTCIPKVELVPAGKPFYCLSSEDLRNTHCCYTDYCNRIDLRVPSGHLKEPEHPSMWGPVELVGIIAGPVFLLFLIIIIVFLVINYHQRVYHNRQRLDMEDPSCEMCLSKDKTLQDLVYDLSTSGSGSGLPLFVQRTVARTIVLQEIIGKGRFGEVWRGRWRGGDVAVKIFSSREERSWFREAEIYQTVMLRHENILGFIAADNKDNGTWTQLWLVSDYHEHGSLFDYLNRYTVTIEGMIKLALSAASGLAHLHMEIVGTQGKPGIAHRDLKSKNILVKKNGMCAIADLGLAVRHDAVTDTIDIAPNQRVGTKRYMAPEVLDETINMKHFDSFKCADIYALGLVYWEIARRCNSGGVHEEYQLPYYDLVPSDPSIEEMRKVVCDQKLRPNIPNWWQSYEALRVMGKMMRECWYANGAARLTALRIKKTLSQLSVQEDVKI
UniProt P00519, sequence (whole entry, unmodified, looked up): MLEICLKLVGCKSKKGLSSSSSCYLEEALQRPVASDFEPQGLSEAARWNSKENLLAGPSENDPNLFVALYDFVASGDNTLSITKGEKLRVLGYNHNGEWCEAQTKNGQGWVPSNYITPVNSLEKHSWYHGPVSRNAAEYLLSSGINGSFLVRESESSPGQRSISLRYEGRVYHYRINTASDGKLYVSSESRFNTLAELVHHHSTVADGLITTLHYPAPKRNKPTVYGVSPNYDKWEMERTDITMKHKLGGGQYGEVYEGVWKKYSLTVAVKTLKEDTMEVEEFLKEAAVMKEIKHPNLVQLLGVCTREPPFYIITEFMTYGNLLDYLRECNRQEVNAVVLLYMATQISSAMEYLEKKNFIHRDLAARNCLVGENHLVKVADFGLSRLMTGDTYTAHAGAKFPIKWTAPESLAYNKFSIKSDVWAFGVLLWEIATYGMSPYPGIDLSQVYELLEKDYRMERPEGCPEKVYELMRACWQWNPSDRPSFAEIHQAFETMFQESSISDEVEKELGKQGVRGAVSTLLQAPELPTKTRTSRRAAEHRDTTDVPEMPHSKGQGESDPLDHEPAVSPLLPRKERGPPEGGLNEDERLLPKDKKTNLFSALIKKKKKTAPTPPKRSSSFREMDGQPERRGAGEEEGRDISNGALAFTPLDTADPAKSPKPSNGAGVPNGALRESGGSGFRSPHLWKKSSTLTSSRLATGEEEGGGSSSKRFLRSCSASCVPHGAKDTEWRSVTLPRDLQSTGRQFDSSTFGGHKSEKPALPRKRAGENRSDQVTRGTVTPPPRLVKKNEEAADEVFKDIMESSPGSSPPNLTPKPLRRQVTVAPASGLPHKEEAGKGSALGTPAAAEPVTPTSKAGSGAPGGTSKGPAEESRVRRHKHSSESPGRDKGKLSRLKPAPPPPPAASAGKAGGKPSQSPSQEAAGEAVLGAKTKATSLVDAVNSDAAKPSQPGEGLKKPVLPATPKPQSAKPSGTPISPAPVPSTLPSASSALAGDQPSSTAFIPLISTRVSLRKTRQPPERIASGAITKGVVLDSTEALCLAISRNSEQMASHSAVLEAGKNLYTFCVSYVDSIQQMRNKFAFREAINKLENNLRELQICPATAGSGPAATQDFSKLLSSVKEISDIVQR
UniProt P0DMS8, sequence (whole entry, unmodified, looked up): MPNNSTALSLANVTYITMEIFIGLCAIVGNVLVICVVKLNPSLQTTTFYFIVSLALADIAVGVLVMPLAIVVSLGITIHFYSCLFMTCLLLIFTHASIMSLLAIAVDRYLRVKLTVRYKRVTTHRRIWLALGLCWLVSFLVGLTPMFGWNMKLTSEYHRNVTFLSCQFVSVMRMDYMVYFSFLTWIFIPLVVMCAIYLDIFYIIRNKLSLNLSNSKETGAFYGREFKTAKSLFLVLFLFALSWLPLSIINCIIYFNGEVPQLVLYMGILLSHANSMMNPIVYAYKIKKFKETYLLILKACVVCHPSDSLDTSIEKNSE

Structure (SMILES) | target or system | assay | conditions | quantity | result
O=C(NO)c1cc(F)cc(OS(=O)(=O)Oc2ccc(-n3ccnc3)cc2)c1 | HDAC8 | enzyme activity, inhibitor, fluorescence |  | Ki | 463 nM
Cc1cc(Oc2ncccc2CN2CCN(c3ccccc3[N+](=O)[O-])CC2)ccc1-c1c(C)c(=O)[nH]c(=O)n1C | ADRA2B | ligand displacement, radioligand |  | Ki | 235 nM
Cc1[nH]c(C)c(S(=O)(=O)Nc2cc(Cl)c(Cl)cc2Cl)c1C(=O)N1CCC(F)(F)C1 | DRD3 | β-arrestin recruitment, antagonist |  | IC50 | 6800 nM
Cc1cc(Oc2ncccc2CN2CCN(c3ccc(F)cc3F)CC2)ccc1-c1c(C)c(=O)[nH]c(=O)n1C | ADRA2B | ligand displacement, radioligand |  | Ki | 427 nM
O=C(Nc1ccc(Oc2nnc(-c3ccc(Cl)cc3)c3ccccc23)cc1)c1cccc([N+](=O)[O-])c1 | MCF7 | cell growth or viability, MTT | 0.312 µM, 24 h | viability | 17%
Cc1[nH]c(C)c(S(=O)(=O)Nc2ccc(C(F)(F)F)c(Cl)c2)c1C(=O)N(C)C | DRD3 | β-arrestin recruitment, antagonist |  | IC50 | 2400 nM
C=CC(=O)N1CCC(COCC(=O)N2CCN(c3nc(-c4cnc(N)nc4C(F)F)nc(N4CCOC[C@@H]4C)n3)CC2)CC1 | Phosphorylase b kinase gamma catalytic chain, liver/testis isoform (PHKG2, Homo sapiens, UniProt P15735) | binding, competition with immobilised ligand | 1 µM | remaining binding | 100%
Cc1[nH]c(C)c(S(=O)(=O)Nc2ccc(C(F)(F)F)c(Cl)c2)c1C(=O)N1CCC(=O)C1 | DRD3 | G protein activation, antagonist, BRET |  | IC50 | 5600 nM
COc1cccc(OS(=O)(=O)Oc2cccc(C(=O)NO)c2)c1 | HDAC8 | enzyme activity, inhibitor, fluorescence |  | Ki | 58 nM
Cc1[nH]c(C)c(S(=O)(=O)Nc2ccc(C(F)(F)F)c(Cl)c2)c1C(=O)N1CC[C@H](F)C1 | DRD3 | G protein activation, antagonist, BRET |  | IC50 | 2600 nM
O=C(NO)c1cccc(OS(=O)(=O)Oc2ccc3c(c2)OCO3)c1 | HDAC6 | enzyme activity, inhibitor, fluorescence |  | Ki | 45 nM
CC(=O)Nc1ccc(Oc2nnc(-c3ccc(Cl)cc3)c3ccccc23)cc1 | MCF7 | cell growth or viability, MTT | 0.625 µM | cell death | 95.1%
Cc1cc([C@@H](C)Nc2ccccc2C(=O)O)c2nc(N3CCC(F)(F)CC3)c(C#N)c(=O)n2c1 | Rho-associated protein kinase 2 (ROCK2, Homo sapiens, UniProt O75116) | binding, competition with immobilised ligand | 10 µM | remaining binding | 100%
Cc1[nH]c(C)c(S(=O)(=O)Nc2ccc(C(F)(F)F)c(Cl)c2)c1C(=O)N1CCC(F)(F)C1 | DRD3 | G protein activation, antagonist, BRET |  | IC50 | 340 nM
COc1ccc(OS(=O)(=O)Oc2cccc(C(=O)NO)c2)cc1OC | HDAC6 | enzyme activity, inhibitor, fluorescence |  | IC50 | 63 nM
CCCCC(=O)Nc1ccc(-c2ccc3ncn(CCC)c(=O)c3c2)cn1 | Tyrosine-protein kinase ABL1, non-phosphorylated (ABL1, Homo sapiens, UniProt P00519, F317L) | binding, competition with immobilised ligand | 0.5 µM | remaining binding | 96%

Structure (SMILES) | target or system | assay | conditions | quantity | result
CN(C)c1ncnc2c1ncn2[C@@H]1O[C@H](CO)[C@@H](O)[C@H]1O | Adenosine receptor A3 (ADORA3, Homo sapiens, UniProt P0DMS8, I253M) | G protein activation, agonist |  | EC50 | 16000 nM
Cc1cc(Oc2ncccc2CN2CCN(c3cccc(Cl)c3)CC2)ccc1-c1c(C)c(=O)[nH]c(=O)n1C | ADRA2B | ligand displacement, radioligand |  | Ki | 124 nM
O=S(=O)(Nc1nccs1)c1ccc(N=NN(O)c2ccccc2)cc1 |  | ABTS scavenging | 60 µg/mL | inhibition | 49.8%
Cc1cc(Oc2ncccc2CN2CCN(c3cccc(Cl)c3Cl)CC2)ccc1-c1c(C)c(=O)[nH]c(=O)n1C | ADRA2C | ligand displacement, radioligand |  | Ki | 22.4 nM
O=C(NO)c1cncc(OS(=O)(=O)Oc2ccc(-n3ccnc3)cc2)c1 | Histone deacetylase 1 (HDAC1, Homo sapiens, UniProt Q13547) | enzyme activity, inhibitor, fluorescence |  | Ki | 213 nM
Cc1cc(Oc2ncccc2CN2CCN(c3ccc(O)cc3)CC2)ccc1-c1c(C)c(=O)[nH]c(=O)n1C | ADRA2C | ligand displacement, radioligand |  | Ki | 288 nM
[2H]C1([2H])CCC([2H])([2H])N1C(=O)c1c(C)[nH]c(C)c1S(=O)(=O)Nc1ccc(C(F)(F)F)c(Cl)c1 | DRD3 | G protein activation, antagonist, BRET |  | IC50 | 2200 nM
COc1cc(-c2cncc3c2CN(C)Cc2cc(N4CCNCC4)ccc2-3)cc(OC)c1OC | Activin receptor type-1B (ACVR1B, Homo sapiens, UniProt P36896) | enzyme activity, inhibitor | 1 µM | remaining activity | 32%
CNc1ncc2c(/C=C/C(=O)N3CCC(OC)CC3)nn(Cc3cccc(C(F)(F)F)c3)c2n1 | Receptor-interacting serine/threonine-protein kinase 4 (RIPK4, Homo sapiens, UniProt P57078) | enzyme activity, inhibitor, radiometric | 1 µM | remaining activity | 99%
CC(C)c1cccc(OS(=O)(=O)Oc2cc(F)cc(C(=O)NO)c2)c1 | HDAC6 | enzyme activity, inhibitor, fluorescence |  | Ki | 370 nM
Cc1cc(Oc2ncccc2CN2CCN(c3ccccc3Br)CC2)ccc1-c1c(C)c(=O)[nH]c(=O)n1C | Alpha-1A adrenergic receptor (ADRA1A, Homo sapiens, UniProt P35348) | ligand displacement, radioligand |  | Ki | 663 nM
O=C(NO)c1cncc(OS(=O)(=O)Oc2ccc3ccccc3c2)c1 | Histone deacetylase 5 (HDAC5, Homo sapiens, UniProt Q9UQL6) | enzyme activity, inhibitor, fluorescence |  | Ki | 2700 nM
CCN(O)N=Nc1ccc(S(=O)(=O)Nc2cc(C)on2)cc1 |  | ABTS scavenging | 60 µg/mL | inhibition | 11.4%
Cc1[nH]cc(C(=O)N(C)C)c1S(=O)(=O)Nc1ccc(C(F)(F)F)c(Cl)c1 | DRD3 | G protein activation, antagonist, BRET |  | IC50 | 25000 nM
Cc1cc(Oc2ncccc2CN2CCN(c3c(C)cccc3C)CC2)ccc1-c1c(C)c(=O)[nH]c(=O)n1C | ADRA2B | ligand displacement, radioligand |  | Ki | 909 nM

Some of these lines once more:
Structure (SMILES) | target or system | assay | conditions | quantity | result
O=S(=O)(Nc1nccs1)c1ccc(N=NN(O)c2ccccc2)cc1 |  | ABTS scavenging | 60 µg/mL | inhibition | 49.8%
COc1ccc(OS(=O)(=O)Oc2cccc(C(=O)NO)c2)cc1OC | HDAC6 | enzyme activity, inhibitor, fluorescence |  | IC50 | 63 nM
COc1cccc(OS(=O)(=O)Oc2cccc(C(=O)NO)c2)c1 | HDAC8 | enzyme activity, inhibitor, fluorescence |  | Ki | 58 nM
